Measured values pooled from the literature.
“And” joins repeats or separate records; there may be more than shown. ± marks the error that the study gave.
OPRK1: Kappa-type opioid receptor (OPRK1, Homo sapiens, UniProt P41145)
Sequence of UniProt P41145 (whole entry, looked up): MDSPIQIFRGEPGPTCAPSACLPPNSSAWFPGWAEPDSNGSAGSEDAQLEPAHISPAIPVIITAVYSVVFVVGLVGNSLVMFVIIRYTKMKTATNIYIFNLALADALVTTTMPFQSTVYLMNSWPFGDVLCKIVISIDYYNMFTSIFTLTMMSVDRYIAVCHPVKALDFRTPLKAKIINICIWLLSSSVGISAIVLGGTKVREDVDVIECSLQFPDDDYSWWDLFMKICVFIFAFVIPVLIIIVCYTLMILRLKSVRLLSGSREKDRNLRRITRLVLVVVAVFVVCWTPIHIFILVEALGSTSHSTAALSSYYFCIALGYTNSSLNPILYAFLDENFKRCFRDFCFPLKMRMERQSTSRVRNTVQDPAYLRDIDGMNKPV
CGAS catalytic domain; with DNA: Cyclic GMP-AMP synthase, catalytic domain; with DNA (CGAS, Homo sapiens, UniProt Q8N884)
Sequence of UniProt Q8N884 (whole entry, looked up): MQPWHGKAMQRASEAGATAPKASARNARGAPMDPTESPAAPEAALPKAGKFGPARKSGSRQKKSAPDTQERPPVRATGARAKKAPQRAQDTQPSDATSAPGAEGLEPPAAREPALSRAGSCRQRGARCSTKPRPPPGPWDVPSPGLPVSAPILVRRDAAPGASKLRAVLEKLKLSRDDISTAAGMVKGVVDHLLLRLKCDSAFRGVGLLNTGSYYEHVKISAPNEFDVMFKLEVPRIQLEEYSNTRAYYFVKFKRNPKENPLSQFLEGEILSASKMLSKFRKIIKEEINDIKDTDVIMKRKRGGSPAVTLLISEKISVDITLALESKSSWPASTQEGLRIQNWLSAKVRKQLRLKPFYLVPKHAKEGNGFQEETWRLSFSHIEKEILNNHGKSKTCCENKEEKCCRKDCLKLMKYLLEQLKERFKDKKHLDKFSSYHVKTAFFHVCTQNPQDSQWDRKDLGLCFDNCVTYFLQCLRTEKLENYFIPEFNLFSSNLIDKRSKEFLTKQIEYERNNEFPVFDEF
GABA-A receptor; alpha-5/beta-3/gamma-2: GABA-A receptor; alpha-5/beta-3/gamma-2 (Homo sapiens, UniProt P18507+P28472+P31644)
Sequence of UniProt P18507 (whole entry, looked up): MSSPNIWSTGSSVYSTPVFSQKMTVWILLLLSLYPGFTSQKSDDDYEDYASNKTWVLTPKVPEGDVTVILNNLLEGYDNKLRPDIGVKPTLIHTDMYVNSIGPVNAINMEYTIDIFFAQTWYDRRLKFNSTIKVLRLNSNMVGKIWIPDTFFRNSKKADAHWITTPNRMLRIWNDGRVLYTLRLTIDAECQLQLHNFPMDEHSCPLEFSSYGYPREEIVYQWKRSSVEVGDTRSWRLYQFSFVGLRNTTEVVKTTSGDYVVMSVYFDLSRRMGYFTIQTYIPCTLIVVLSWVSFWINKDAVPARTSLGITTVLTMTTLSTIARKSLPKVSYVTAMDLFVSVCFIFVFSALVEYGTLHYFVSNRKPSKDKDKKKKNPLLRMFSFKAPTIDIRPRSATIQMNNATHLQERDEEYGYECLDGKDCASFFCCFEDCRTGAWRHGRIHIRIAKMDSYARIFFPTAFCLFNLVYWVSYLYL
Sequence of UniProt P28472 (whole entry, looked up): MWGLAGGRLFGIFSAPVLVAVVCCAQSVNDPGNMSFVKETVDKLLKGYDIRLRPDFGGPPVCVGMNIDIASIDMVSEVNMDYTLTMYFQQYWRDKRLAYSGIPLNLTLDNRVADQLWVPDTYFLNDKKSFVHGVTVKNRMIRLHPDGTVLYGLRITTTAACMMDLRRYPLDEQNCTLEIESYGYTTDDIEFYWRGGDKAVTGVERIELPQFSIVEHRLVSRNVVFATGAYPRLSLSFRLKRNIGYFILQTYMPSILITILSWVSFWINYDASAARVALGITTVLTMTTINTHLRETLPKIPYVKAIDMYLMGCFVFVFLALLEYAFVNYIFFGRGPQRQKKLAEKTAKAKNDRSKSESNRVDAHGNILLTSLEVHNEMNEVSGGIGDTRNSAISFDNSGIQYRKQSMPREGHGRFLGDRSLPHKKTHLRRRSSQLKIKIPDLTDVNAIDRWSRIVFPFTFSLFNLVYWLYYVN
Sequence of UniProt P31644 (whole entry, looked up): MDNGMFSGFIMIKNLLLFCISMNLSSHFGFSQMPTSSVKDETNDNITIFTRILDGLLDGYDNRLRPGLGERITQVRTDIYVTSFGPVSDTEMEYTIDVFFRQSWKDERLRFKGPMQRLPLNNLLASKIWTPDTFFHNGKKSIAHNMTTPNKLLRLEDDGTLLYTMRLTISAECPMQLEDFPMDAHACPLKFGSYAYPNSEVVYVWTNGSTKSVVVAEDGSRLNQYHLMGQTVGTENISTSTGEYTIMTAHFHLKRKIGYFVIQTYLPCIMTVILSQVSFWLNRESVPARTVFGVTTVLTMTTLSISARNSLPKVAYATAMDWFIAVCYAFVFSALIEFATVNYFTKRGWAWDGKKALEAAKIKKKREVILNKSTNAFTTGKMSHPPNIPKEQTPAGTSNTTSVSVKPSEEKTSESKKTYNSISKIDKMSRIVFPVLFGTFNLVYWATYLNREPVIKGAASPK
PYR1: Abscisic acid receptor PYR1 (PYR1, Arabidopsis thaliana, UniProt O49686)
Sequence of UniProt O49686 (whole entry, looked up): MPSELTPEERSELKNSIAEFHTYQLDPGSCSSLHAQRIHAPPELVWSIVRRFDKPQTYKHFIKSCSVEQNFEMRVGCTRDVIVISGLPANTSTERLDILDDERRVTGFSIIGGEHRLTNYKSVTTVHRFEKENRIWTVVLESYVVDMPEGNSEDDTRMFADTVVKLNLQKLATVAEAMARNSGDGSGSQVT
Sequence of UniProt Q9HBA0 (whole entry, looked up): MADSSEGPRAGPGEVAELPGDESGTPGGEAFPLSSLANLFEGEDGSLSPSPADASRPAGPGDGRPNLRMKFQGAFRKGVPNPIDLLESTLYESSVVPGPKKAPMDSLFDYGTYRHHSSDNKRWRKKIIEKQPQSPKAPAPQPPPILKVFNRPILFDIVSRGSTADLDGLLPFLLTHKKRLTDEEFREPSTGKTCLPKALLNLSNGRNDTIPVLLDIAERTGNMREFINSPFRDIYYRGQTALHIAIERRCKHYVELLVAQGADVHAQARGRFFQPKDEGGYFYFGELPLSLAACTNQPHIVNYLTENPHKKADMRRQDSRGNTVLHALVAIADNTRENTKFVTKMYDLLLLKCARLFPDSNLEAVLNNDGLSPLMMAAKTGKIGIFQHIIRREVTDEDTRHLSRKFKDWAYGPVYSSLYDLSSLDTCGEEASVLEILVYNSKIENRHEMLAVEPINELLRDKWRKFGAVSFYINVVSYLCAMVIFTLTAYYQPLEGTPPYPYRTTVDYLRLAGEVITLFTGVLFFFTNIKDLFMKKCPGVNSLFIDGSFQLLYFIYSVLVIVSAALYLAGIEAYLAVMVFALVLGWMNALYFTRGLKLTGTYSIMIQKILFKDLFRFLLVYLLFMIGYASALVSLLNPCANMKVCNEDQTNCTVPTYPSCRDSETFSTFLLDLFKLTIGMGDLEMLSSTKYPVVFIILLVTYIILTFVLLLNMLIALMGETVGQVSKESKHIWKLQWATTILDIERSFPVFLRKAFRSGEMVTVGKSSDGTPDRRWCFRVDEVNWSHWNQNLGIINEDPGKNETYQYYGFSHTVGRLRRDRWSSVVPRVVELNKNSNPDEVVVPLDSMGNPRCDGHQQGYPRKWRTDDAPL
Sequence of UniProt P34995 (whole entry, unmodified, looked up): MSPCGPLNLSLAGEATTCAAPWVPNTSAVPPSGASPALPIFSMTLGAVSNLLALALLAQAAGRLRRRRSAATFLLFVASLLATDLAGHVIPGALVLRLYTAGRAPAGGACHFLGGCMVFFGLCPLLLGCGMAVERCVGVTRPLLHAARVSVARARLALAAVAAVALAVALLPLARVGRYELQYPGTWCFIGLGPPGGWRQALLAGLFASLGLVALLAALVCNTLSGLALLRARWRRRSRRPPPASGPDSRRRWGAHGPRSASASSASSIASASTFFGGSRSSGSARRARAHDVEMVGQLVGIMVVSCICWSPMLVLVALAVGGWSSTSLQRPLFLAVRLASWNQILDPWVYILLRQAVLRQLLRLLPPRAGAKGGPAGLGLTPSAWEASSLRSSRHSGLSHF
Sequence of UniProt Q9NXA8 (whole entry, looked up): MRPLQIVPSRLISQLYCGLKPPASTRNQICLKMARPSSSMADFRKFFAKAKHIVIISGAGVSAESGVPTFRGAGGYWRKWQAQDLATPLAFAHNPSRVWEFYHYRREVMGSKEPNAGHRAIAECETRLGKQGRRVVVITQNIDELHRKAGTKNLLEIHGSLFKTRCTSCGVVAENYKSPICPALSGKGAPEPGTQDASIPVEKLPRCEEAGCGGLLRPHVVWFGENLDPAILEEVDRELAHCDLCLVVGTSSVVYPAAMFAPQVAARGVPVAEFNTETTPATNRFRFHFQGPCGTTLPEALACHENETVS
Sequence of UniProt Q704Y3 (whole entry, unmodified, looked up): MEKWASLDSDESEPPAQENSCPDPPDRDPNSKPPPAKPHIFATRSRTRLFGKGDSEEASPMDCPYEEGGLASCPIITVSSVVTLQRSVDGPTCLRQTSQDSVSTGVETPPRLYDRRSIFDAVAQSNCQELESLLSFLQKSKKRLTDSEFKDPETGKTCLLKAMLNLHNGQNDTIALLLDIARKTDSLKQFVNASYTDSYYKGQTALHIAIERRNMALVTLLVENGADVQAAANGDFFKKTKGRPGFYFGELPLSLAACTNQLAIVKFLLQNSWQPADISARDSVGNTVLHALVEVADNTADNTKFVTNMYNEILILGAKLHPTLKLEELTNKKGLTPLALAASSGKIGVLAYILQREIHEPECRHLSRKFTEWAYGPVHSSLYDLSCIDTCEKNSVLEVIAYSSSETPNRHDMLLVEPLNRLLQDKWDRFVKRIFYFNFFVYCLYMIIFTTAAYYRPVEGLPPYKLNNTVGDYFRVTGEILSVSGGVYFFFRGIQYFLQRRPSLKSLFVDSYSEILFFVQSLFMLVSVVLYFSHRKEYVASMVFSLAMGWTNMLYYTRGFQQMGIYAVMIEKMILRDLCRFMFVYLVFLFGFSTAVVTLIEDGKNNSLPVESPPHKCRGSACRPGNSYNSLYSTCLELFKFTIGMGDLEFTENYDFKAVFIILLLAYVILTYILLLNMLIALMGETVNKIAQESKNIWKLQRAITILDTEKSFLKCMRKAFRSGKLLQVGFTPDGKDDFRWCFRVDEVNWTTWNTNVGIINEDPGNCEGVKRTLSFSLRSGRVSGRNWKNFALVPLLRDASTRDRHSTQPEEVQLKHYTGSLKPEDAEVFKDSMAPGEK

NC(=O)c1ccc[n+]([C@@H]2O[C@H](CO)[C@@H](O)[C@H]2O)c1 — EC50 (NAD-dependent protein deacylase sirtuin-5, mitochondrial (SIRT5, Homo sapiens, UniProt Q9NXA8); probe labelling, activator; together with: probe A 25 µM, NAD+ 500 µM): 210 µM
CCn1c(-c2nc3cc(C(=O)N4CCC[C@@H](N)C4)cc(OC)c3n2C)cc2cccnc21 — EC50 (OPRK1; G protein activation, agonist, GTPγS binding): > 100 µM
CCOCc1nc(O)c(-c2nnc(Cc3ccc(Cl)cn3)o2)c(O)c1-c1c(OC)cccc1OC — EC50 (Apelin receptor (APLNR, Homo sapiens, UniProt P35414); Gαi3 activation, agonist, BRET biosensor; HEK293): 0.00046 ± 3e-05 µM
O=C(Nc1ccn(Cc2ccc(O)cc2C(F)(F)F)n1)c1c(F)cccc1F — EC50 (Transient receptor potential cation channel subfamily V member 4 (TRPV4, Homo sapiens, UniProt Q9HBA0); ion channel activity, agonist; cells overexpressing TRPV4; human receptor): > 10 µM
Cc1nn(-c2nc3c(F)cc(F)cc3s2)c(O)c1C(c1ccccc1C(F)(F)F)c1c(C)nn(-c2nc3c(F)cc(F)cc3s2)c1O — EC50 (CGAS catalytic domain; with DNA; cGAS-DNA condensate disruption; concentration not given, together with: Cy3-labelled DNA): 3.2 ± 1.2 µM
O=C(O)C1=CCNCC1 — EC50 (GABA-A receptor; alpha-5/beta-3/gamma-2; chloride current, agonist, electrophysiology; HEK293 expressing GABAA α5β3γ2): 9.8 µM
CCn1c(-c2nc3ccc(C(=O)N4CCCC(N)C4)cc3n2C)cc2ccccc21 (centres unmarked) — EC50 (D(2) dopamine receptor (DRD2, Homo sapiens, UniProt P14416); agonist, GTPγS binding): > 100 µM
Cc1nn(-c2nc3c(F)cc(F)cc3s2)c(O)c1C(c1cccc(C(F)(F)F)c1)c1c(C)nn(-c2nc3c(F)cc(F)cc3s2)c1O — EC50 (CGAS catalytic domain; with DNA; cGAS phase separation, inhibitor): 4.41 µM and 4.9 µM
O=C(Cc1cc(C2CC2)c(-n2cc(CNC(=O)c3ccc4ccccc4n3)nn2)c(C2CC2)c1)NC1(C(=O)O)CCCCC1 — EC50 (PYR1; phosphatase activity recovery, antagonist; together with: HAB1, ABA 5000 nM): 0.126 ± 0.021 µM
COC(=O)C1=C2Nc3ccccc3[C@@]23CCN2C[C@@](O)([C@@H](C)O)[C@@H]1C[C@H]23 — EC50 (OPRK1; cAMP inhibition, agonist, HitHunter; CHO-K1; together with: forskolin): > 10 µM
O=C(Cc1cc(C2CC2)c(-n2cc(CNC(=O)c3cccc(Br)n3)nn2)c(C2CC2)c1)NC1(C(=O)O)CCCCC1 — EC50 (PYR1; phosphatase activity recovery, antagonist; together with: HAB1, ABA 5000 nM): 0.23 ± 0.039 µM
COc1cc(NC(=O)c2occc2C)ccc1/N=N/c1ccccc1Cl — EC50 (Metabotropic glutamate receptor 4 (GRM4, Homo sapiens, UniProt Q14833); activator): > 31.6 µM
O=C(Cc1cc(C2CC2)c(-n2cc(CNC(=O)c3cc(Br)co3)nn2)c(C2CC2)c1)NC1(C(=O)O)CCCCC1 — EC50 (PYR1; phosphatase activity recovery, antagonist; together with: HAB1, ABA 5000 nM): 0.157 ± 0.032 µM
CCCCCCCC/C=C\CCCCCCCC(=O)NCCc1ccc(O)c(O)c1 — EC50 (Transient receptor potential cation channel subfamily V member 1 (Trpv1, Mus musculus, UniProt Q704Y3, S511T); ion current, agonist, whole-cell patch clamp; 24 °C, S511T, +80 mV): 0.27 ± 0.05 µM
O=C(Cc1cc(C2CC2)c(-n2cc(CNC(=O)c3cccc4c3OC(F)(F)O4)nn2)c(C2CC2)c1)NC1(C(=O)O)CCCCC1 — EC50 (PYR1; phosphatase activity recovery, antagonist; together with: HAB1, ABA 5000 nM): 0.174 ± 0.02 µM
CCCCC[C@H](O)/C=C/[C@H]1[C@H](O)CC(=O)[C@@H]1C/C=C\CCCC(=O)O — EC50 (Prostaglandin E2 receptor EP1 subtype (PTGER1, Homo sapiens, UniProt P34995, Q298A); IP1 accumulation, agonist; AD293; EP1 Q298A mutant): 0.00191 µM
Cc1ccc(C(=O)NCc2cn(-c3c(C4CC4)cc(CC(=O)NC4(C(=O)O)CCCCC4)cc3C3CC3)nn2)o1 — EC50 (PYR1; phosphatase activity recovery, antagonist; together with: HAB1, ABA 5000 nM): 0.485 ± 0.065 µM
O=S(=O)(O)C1CCNCC1 — EC50 (GABA-A receptor; alpha-5/beta-3/gamma-2; chloride current, agonist, electrophysiology; HEK293 expressing GABAA α5β3γ2): 10 µM
O=C(Cc1cc(C2CC2)c(-n2cc(CNC(=O)c3cnc(Br)s3)nn2)c(C2CC2)c1)NC1(C(=O)O)CCCCC1 — EC50 (PYR1; phosphatase activity recovery, antagonist; together with: HAB1, ABA 5000 nM): 0.16 ± 0.028 µM
Cc1nn2c(N3CCN(CCO)CC3)cc(-c3ccccc3)nc2c1-c1ccccc1 — EC50 (GTPase KRas (KRAS, Homo sapiens, UniProt P01116); intrinsic nucleotide exchange): 3.1 ± 1.2 µM
